Published values gathered from unrelated publications.
Lines come from different studies, so protocols differ. Several values in a cell are separate wells, animals, samples, runs or records. ± marks the error that the study gave.

SMILES	assay	test system	setting	CL/F
CO[C@H]1CC[C@H](N2C(=O)CNc3ncc(-c4ccc(C(C)(C)O)nc4)nc32)CC1	–	patients, plasma	45 mg, day -1, geometric mean	26.6 L/h
O=C(c1cccnc1-c1ccncc1)N1CCC(O)(Cc2ccccc2)CC1	population PK model	healthy adults	oral, 100 mg	277 L/h
CCCCCCCCCCCCCCCC(=O)N[C@@H](CCC(=O)NCCCC[C@@H]1NC(=O)[C@H]([C@@H](C)CC)NC(=O)[C@@H](NC(=O)[C@@H]2CCCN2C(=O)[C@H](Cc2ccccc2)NC(=O)[C@H](Cc2c[nH]cn2)NC(=O)[C@@H](NC(=O)[C@H](CC(=O)O)NC(=O)CC(C)C)[C@@H](C)O)CSSC[C@@H](C(=O)N[C@@H](CCCCN)C(N)=O)NC(=O)CNC(=O)[C@H](CCCCN)NC(=O)[C@H](CO)NC(=O)[C@H](CCCNC(=N)N)NC(=O)[C@@H]2CCCN2C(=O)[C@H](CCC(=O)O)NC(=O)[C@H](Cc2ccccc2)NC1=O)C(=O)O	–	healthy volunteers, plasma	subcutaneous, 30 mg single, lyophilised formulation	1.2 ± 0.299 L/h
OC[C@H]1O[C@@H](c2ccc(F)c(Cc3cc4ccccc4s3)c2)[C@H](O)[C@@H](O)[C@@H]1O	–	Japanese type 2 diabetes patients	oral, 100 mg/day, day 14	9.8 ± 2.24 L/h
O=C(Nc1cnccc1Cl)N1CCN(Cc2ccc3c(c2)OC(F)(F)O3)CC1	–	elderly men and women, plasma	oral, 100 mg once daily, day 10	11.8 L/h
O=C(c1cccnc1-c1ccncc1)N1CCC(O)(Cc2ccccc2)CC1	–	healthy Japanese adults, plasma	oral, 300 mg twice daily, day 21	158 L/h
C=CC[C@@H]1/C=C(\C)C[C@H](C)C[C@H](OC)[C@H]2O[C@@](O)(C(=O)C(=O)N3CCCC[C@H]3C(=O)O[C@H](/C(C)=C/[C@@H]3CC[C@@H](O)[C@H](OC)C3)[C@H](C)[C@@H](O)CC1=O)[C@H](C)C[C@@H]2OC	–	healthy adults	oral, geometric mean	29.1 L/h and 18.7 L/h
N#CC[C@H](C1CCCC1)n1cc(-c2ncnc3[nH]ccc23)cn1	–	children, plasma	oral, mean	14.8 ± 5.9 L/h
C[C@@H](N)C1CCN(S(=O)(=O)c2cccc3cnccc23)CC1	–	healthy volunteers, fasted, plasma	oral, 75 mg	5350 L/h
CC[C@@H]1CN(C(=O)NCC(F)(F)F)C[C@@H]1c1cnc2cnc3[nH]ccc3n12	population PK model	healthy, RA and CD subjects, plasma	oral, immediate-release formulation	39.6 L/h

A few entries again:
SMILES	assay	test system	setting	CL/F
O=C(c1cccnc1-c1ccncc1)N1CCC(O)(Cc2ccccc2)CC1	population PK model	healthy adults	oral, 100 mg	277 L/h
